Experimental data gathered from unrelated publications.
Protocols differ between the studies behind these lines. Values joined by “and” are separate records of one study, mostly repeats; a detail may differ. ± gives the spread as reported. Values after ≈ are worked out from the molar mass of the structure shown.

Molecule	test	test system	setting	scale	quantity	result
Cn1c(-c2ccc(C(N)=O)cc2F)nnc1C(C)(C)Oc1c(F)cc(Cl)cc1F	–	healthy young Japanese subjects, plasma	oral, 50 mg once daily, day 18, 14 days dosing	–	Tmax range	1 to 4 h
C/C=C(/C)C(=O)O[C@H]1C(C)=C[C@]23C(=O)[C@@H](C=C(CO)[C@@H](O)[C@]12O)[C@H]1[C@@H](C[C@H]3C)C1(C)C	–	phosphate buffer 30% acetonitrile	100 µM, 24 h, pH 7.4, 37 °C	–	remaining compound	~44%
CN(C)Cc1c(C(=O)NCCOc2ccc(C(=O)NO)cc2)oc2ccccc12	–	human, plasma	oral, 60 mg, single dose on day -3	–	half-life (median)	499 min
O=c1c(O)c(-c2ccc(O)cc2)oc2cc(O)cc(O)c12	–	phosphate buffer	pH 6.8, added from DMSO stock	–	precipitation concentration	> 80 µM
CON	–	human, whole blood on ice	90 min before centrifugation	–	blood concentration	10.3 ng/mL
CCCOc1ccc([C@H]2CNC(=O)N2c2ccc3[nH]cnc3c2)cc1	–	human volunteers fasted, plasma	oral solution, 30 mg single dose, day 1, geometric mean	–	apparent terminal half-life	137 min
Cc1nc2cccc(OCC(C)(C)C(=O)NC(C)C)c2c(N)c1C(=O)O	–	Sprague-Dawley rat both sexes, plasma	dietary, 100 mg/kg/day, day 90	–	Tmax	7.5 h
CC(C)=CCC[C@](C)(O[C@@H]1O[C@H](CO)[C@@H](O)[C@H](O)[C@H]1O)[C@H]1CC[C@]2(C)[C@@H]1[C@H](O)C[C@@H]1[C@@]3(C)CC[C@H](O[C@@H]4O[C@H](CO)[C@@H](O)[C@H](O)[C@H]4O[C@@H]4O[C@H](CO)[C@@H](O)[C@H](O)[C@H]4O)C(C)(C)[C@@H]3CC[C@]12C	–	Sprague Dawley rat, male, plasma	oral, 42 mg/kg, pure ginsenoside mixture in water	–	CL/F	50 ± 18.3 mL/min/kg
CCn1nc(C2CC2)cc1Nc1nc(C(=O)NCCCCCc2cccc3c2CN(C2CCC(=O)NC2=O)C3=O)nc2[nH]c3cc(-c4c(C)noc4C)c(OC)cc3c12 (stereo not drawn)	–	female SCID C.B-17 mouse, RS4;11 xenograft, tumour	intravenous, 5 mg/kg single, 6 h	–	concentration in tumour	39.4 ng/g
CN[C@H](CC(C)C)C(=O)N[C@H]1C(=O)N[C@@H](CC(N)=O)C(=O)N[C@H]2C(=O)N[C@H]3C(=O)N[C@H](C(=O)N[C@H](C(=O)O)c4cc(O)cc(O)c4-c4cc3ccc4O)[C@H](O)c3ccc(c(Cl)c3)Oc3cc2cc(c3O[C@@H]2O[C@H](CO)[C@@H](O)[C@H](O)[C@H]2O[C@H]2C[C@](C)(N)[C@H](O)[C@H](C)O2)Oc2ccc(cc2Cl)[C@H]1O	–	BALB/c mouse, serum	ip, dose not given	–	serum globulin	3 ± 1 g/dL
liraglutide	equilibrium dialysis	human plasma 10% diluted	10 nM, 4 to 5 h, pH 7.4, 37 °C, inner-outer ratio 100:1	–	plasma protein binding	99.2%
COc1cc(Nc2ncc3c(n2)-c2ccc(Cl)cc2C(c2c(F)cccc2OC)=NC3)ccc1C(=O)O	–	human, plasma	oral, 40 mg twice daily, day 7, steady state, ECT	–	t1/2	1140 min
CC(=O)Nc1noc(C)n1	HPLC-MS	C57BL/6 mouse, male, lungs	oral, 60 mg/kg, 45 min	–	concentration	421 to 1180 ng/g
CC(C)C[C@H](NC(=O)[C@H](CCCNC(=N)N)NC(=S)Nc1ccc(C[C@H]2CN(CC(=O)O)CCN(CC(=O)O)CCN2CC(=O)O)cc1)C(=O)N[C@@H](CC(N)=O)C(=O)N[C@H](C(=O)NCC(=O)NCC(=O)N[C@H](C(=O)N[C@@H](Cc1ccc(O)cc1)C(=O)N[C@@H](Cc1ccccc1)C(=O)N[C@@H](CC(C)C)C(=O)N[C@H](C(=O)N[C@H](C(=O)N[C@@H](CCCNC(=N)N)C(=O)N[C@@H](CCC(N)=O)C(=O)O)[C@@H](C)O)[C@@H](C)O)[C@@H](C)O)C(C)C [fluorine-18 labelled]	radio-HPLC	mouse (HepG2 tumour-bearing), kidney	intravenous, 5.55 MBq, 1 h	–	intact parent radiotracer	54.9 ± 2.12%
CC(C)NC[C@@H](C(=O)N1CCN(c2ncnc3c2[C@H](C)C[C@H]3O)CC1)c1ccc(Cl)cc1	–	human, Moderate hepatic function, plasma	oral, 100 mg single dose, NCI classification, arithmetic mean	–	t1/2	4600 min
COc1cccc(CN)c1O	–	mouse C57BL/6N male, brain	oral drinking water, 10 g/L/day, 1 week	–	brain concentration	419 µM
Alexa Fluor 647	–	PBS	3 µM, 1 h, photostability, together with: 150 W xenon lamp	–	remaining absorbance	77%

Molecule	test	test system	setting	scale	quantity	result
des-acyl ghrelin (human)	–	mouse, Ghsr knockout, striatum	intravenous, 10 min	–	brain/serum ratio	6.67 µL/g
CC(C)(CC(=O)N1CCCC1)NCC(=O)N1C[C@@H](F)C[C@H]1C#N	–	Chinese type 2 diabetes patients, plasma	oral, 50 mg once daily, multiple doses	–	AUC(0-t) at steady state	747 ng·h/mL
CC1=C2C[C@H]3[C@@H](CC[C@@H]4C[C@H](NS(C)(=O)=O)CC[C@@]43C)[C@@H]2CC[C@@]2(C1)O[C@@H]1C[C@H](C)CN[C@H]1[C@H]2C	–	patients, plasma	oral, 130 mg daily, day 22, cycle 1	–	AUC(0-24)	6150 ng·h/mL
N=C(N)c1ccc(CNC(=O)[C@@H]2CCN2C(=O)[C@H](NCC(=O)O)C2CCCCC2)cc1	–	Wistar rats male, plasma	intravenous, 0.003 mg/kg, 15 min, 10 min after TF	–	plasma concentration	6.3 ± 0.3 ng/mL
O=C(CCCCCCC(=O)Nc1ccc([18F])cc1)NO	–	C57BL/6 mouse, whole blood	intravenous, 243 µCi, after initial phase, DMA-Solutol-PBS vehicle	relative to: dose	remaining in blood	~6%
CN(C)C(=O)c1cc2cnc(Nc3ccc(N4CCNCC4)cn3)nc2n1C1CCCC1	–	human, tumour core	oral, 600 mg daily for 14 days, 4 to 8 h after last dose	–	total concentration	21.8 nmol/g and 21.5 nmol/g
O=C(c1cc(Cc2n[nH]c(=O)c3ccccc23)ccc1F)N1CCN(C(=O)C2CC2)CC1	–	cancer patients	oral, 200 mg twice daily, day 2, together with: pegylated liposomal doxorubicin	–	AUC(0-10 h)	46200 ± 52000 ng·h/mL
COc1cc(/C=C/C(=O)CC(=O)/C=C/c2ccc(O)c(OC)c2)ccc1O	I-125 label	C57BL/6J mouse, olfactory lobes	intranasal vs intraperitoneal, 10 µg/mouse IN, 100 µg/mouse IP, 12 h	relative to: intranasal over intraperitoneal	brain uptake ratio	3.15
C[C@](N)(Cc1ccc(O)c(O)c1)C(=O)O	–	supercritical carbon dioxide	5 h, 343 K, 27 MPa, density 760.3 kg/m3	–	solubility	367 µg/mL (≈ 1740 µM)
C[C@@H]1CCN(C(=O)CC#N)C[C@@H]1N(C)c1ncnc2[nH]ccc12	–	rat, DSS colitis model	intravenous infusion, 10 mg/kg, 24 h	relative to: dose	amount remaining in gastrointestinal tract	0.328 ± 0.438%
O=C(CCc1ccccc1)c1ccccc1OCC(O)CN1CCC(c2ccccc2)CC1 (stereo not drawn)	metabolic stability	human, liver microsomes	20 µM, pH 7.4	–	scaled CLint	19.4 mL/min/kg
O=C1N=C(N2CCOCC2)CN1c1ccc(Cl)cc1	–	beagle dog, female	oral, 30 mg/kg, tablets, fed	–	terminal half-life	118 min
CNCc1ccc(-c2[nH]c3cc(F)cc4c3c2CCNC4=O)cc1	–	human patients, plasma	oral, 600 mg twice daily, day 1, arithmetic mean	–	Cmax	1030 ng/mL
CN1CC[C@@H](NC(=O)Nc2ccc(C#N)cc2)C[C@@H]1c1nc2ccccc2[nH]1	–	normal hepatic function, plasma	oral, 100 mg single dose, fasted, arithmetic mean	–	AUC(0-inf), unbound	889 ± 303 ng·h/mL
CSc1cc(C)nc(SC)c1NC(=O)CN1CCN(CCSc2nc3ccccc3[nH]2)CC1	–	mouse Crl:CD1 (ICR) female, olfactory bulb	intranasal repeated, 32.4 µg in 0.01 N HCl, 5 min	–	concentration	156 ng/g
Cl.Cl.NCCCn1c2c(c3ccc(N)cc3c1=O)C(=O)c1ccccc1-2	–	Sprague-Dawley rat, female, perirenal fat	oral, 40 mg/kg/day for 3 days, 3 h after last dose, pooled samples	–	tissue concentration	0.28 µg/g

Some of these lines once more:
Molecule	test	test system	setting	scale	quantity	result
CCn1nc(C2CC2)cc1Nc1nc(C(=O)NCCCCCc2cccc3c2CN(C2CCC(=O)NC2=O)C3=O)nc2[nH]c3cc(-c4c(C)noc4C)c(OC)cc3c12 (stereo not drawn)	–	female SCID C.B-17 mouse, RS4;11 xenograft, tumour	intravenous, 5 mg/kg single, 6 h	–	concentration in tumour	39.4 ng/g
O=C(CCCCCCC(=O)Nc1ccc([18F])cc1)NO	–	C57BL/6 mouse, whole blood	intravenous, 243 µCi, after initial phase, DMA-Solutol-PBS vehicle	relative to: dose	remaining in blood	~6%
CN[C@H](CC(C)C)C(=O)N[C@H]1C(=O)N[C@@H](CC(N)=O)C(=O)N[C@H]2C(=O)N[C@H]3C(=O)N[C@H](C(=O)N[C@H](C(=O)O)c4cc(O)cc(O)c4-c4cc3ccc4O)[C@H](O)c3ccc(c(Cl)c3)Oc3cc2cc(c3O[C@@H]2O[C@H](CO)[C@@H](O)[C@H](O)[C@H]2O[C@H]2C[C@](C)(N)[C@H](O)[C@H](C)O2)Oc2ccc(cc2Cl)[C@H]1O	–	BALB/c mouse, serum	ip, dose not given	–	serum globulin	3 ± 1 g/dL
CN(C)C(=O)c1cc2cnc(Nc3ccc(N4CCNCC4)cn3)nc2n1C1CCCC1	–	human, tumour core	oral, 600 mg daily for 14 days, 4 to 8 h after last dose	–	total concentration	21.8 nmol/g and 21.5 nmol/g
COc1cc(/C=C/C(=O)CC(=O)/C=C/c2ccc(O)c(OC)c2)ccc1O	I-125 label	C57BL/6J mouse, olfactory lobes	intranasal vs intraperitoneal, 10 µg/mouse IN, 100 µg/mouse IP, 12 h	relative to: intranasal over intraperitoneal	brain uptake ratio	3.15
